Experimental data from different studies.
Every numbered part comes from another study and shows a few of its results, in no order.

Set 1
Target: TAR DNA-binding protein 43, full length, His tag (TARDBP, Homo sapiens, UniProt Q13148, residues 1-414)
Method: RNA Bind-n-Seq
Form: RNA
Sample: in vitro
Concentration: 20 nM
Setting: 6-mer, flanks averaged, single round
Added: 150 mM LiCl
Baseline: input library
Direction: higher = stronger binding
Quantity: 6-mer enrichment (R)
Strand = UACCCU; value = 1.01
Strand = CCCACA; value = 0.98
Strand = AUCCCU; value = 0.983
Strand = CAGAAG; value = 0.88
Strand = CGCAAG; value = 0.876
Strand = UUCUCU; value = 0.965
Strand = ACCUAU; value = 0.907
Strand = CAGCUA; value = 0.854
Strand = GAACAC; value = 0.836
Strand = AAGUAU; value = 1
Strand = CCAUAG; value = 0.88
Strand = CGGUAG; value = 0.982
Strand = UGUUAG; value = 1.22
Strand = CUCUGU; value = 0.951
Strand = UCUCUU; value = 1
Strand = UGAUAU; value = 0.954
Strand = UUGGGU; value = 1.29
Strand = UCUGUC; value = 0.908
Strand = GAUGUC; value = 0.939
Strand = AAACGA; value = 0.764
Strand = GUGGAA; value = 1.15
Strand = CGGCCG; value = 0.944
Strand = CACCCA; value = 1.04
Strand = GACUCU; value = 0.87
Strand = ACGGGU; value = 0.981

Set 2
Target: Interferon regulatory factor 7, full length, phosphomimetic (IRF7, Homo sapiens, UniProt Q92985, residues 1-503, S471D/S472D/S475D/S476D/S477D/S483D/S484D/S487D)
Method: protein-binding microarray
Form: double-stranded DNA, one strand shown
Sample: in vitro
Concentration: 2200 nM top
Setting: 60-bp whole probe
Added: salmon DNA 0.4 mg/ml
Baseline: random background probes
Direction: higher = stronger binding
Quantity: fitted relative affinity
All sequences stand within: GCCTAGCAC … GTCTTGATTCGCTTGACGCTGCTG
Residues (chain): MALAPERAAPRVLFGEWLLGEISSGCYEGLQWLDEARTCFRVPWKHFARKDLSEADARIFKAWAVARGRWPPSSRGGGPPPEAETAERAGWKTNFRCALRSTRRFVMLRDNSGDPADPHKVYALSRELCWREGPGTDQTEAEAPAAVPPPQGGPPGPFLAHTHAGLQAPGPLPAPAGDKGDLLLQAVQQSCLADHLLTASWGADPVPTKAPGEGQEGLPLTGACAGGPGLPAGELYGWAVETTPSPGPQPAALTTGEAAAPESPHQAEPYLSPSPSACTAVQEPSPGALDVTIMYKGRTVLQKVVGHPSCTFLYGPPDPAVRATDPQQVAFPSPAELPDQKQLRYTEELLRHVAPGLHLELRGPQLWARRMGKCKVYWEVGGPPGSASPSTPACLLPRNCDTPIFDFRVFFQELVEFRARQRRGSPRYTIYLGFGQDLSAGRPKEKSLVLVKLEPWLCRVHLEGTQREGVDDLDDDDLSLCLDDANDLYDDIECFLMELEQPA
Strand = GACGAACTGGGGGTTCGAGACGTGCTA; value = 0.35 z-score
Strand = TTAAGTTTCCTACTGCTTTAGTGCTAG; value = 1.67 z-score
Strand = TTAGATTTCAGTATGGATTAGTGCTAG; value = 0.556 z-score
Strand = TTAGGTTTGGACTATCGGTTAGTGCTA; value = 0.39 z-score
Strand = TTAGGTATCGGGATTGGGTTAGTGCTA; value = -0.00604 z-score
Strand = TCATAAATCTTTTTCCCACTGTGCTAG; value = 0.828 z-score
Strand = TTTTCATTATTGTCTCCCCCAGTGCTA; value = 2.03 z-score
Strand = ATAGGTATCCTTTTCCTTTAGTGCTAG; value = 1.83 z-score
Strand = GACGGTATCCTACTGCTGAGGTGCTAG; value = 0.333 z-score
Strand = TTAGATATCGGGTATCGTTTAGTGCTA; value = 0.582 z-score
Strand = TGTCTTCCCCATCTTGTTCCGTGCTAG; value = 2.49 z-score
Strand = TTAGGTTTCGGTATCGGTTTGTGCTAG; value = 8.83 z-score
Strand = GCCATTTTCCCTCCCTAATTGTGCTAG; value = 3.6 z-score
Strand = GACGGACTGCTTTGCCTGACGTGCTAG; value = 0.0853 z-score
Strand = TCATTTTCATTTTTTTTACTGTGCTAG; value = 5.07 z-score
Strand = GACGATCTCAGGTTCGAGACGTGCTAG; value = 0.387 z-score
Strand = TTAGGACTGGCTATCGGTTAGTGCTAG; value = -0.232 z-score
Strand = GATGATTTCAGTCTCGAGACGTGCTAG; value = 0.709 z-score
Strand = GACGCTATCAGACTGGAGACGTGCTAG; value = 0.052 z-score

Set 3
Target: Histone acetyltransferase KAT6A, winged helix 2, GST fusion (KAT6A, Homo sapiens, UniProt Q92794, residues 85-181)
Method: protein binding microarray
Form: double-stranded DNA, one strand shown
Sample: in vitro
Concentration: not given
Setting: 8-mer, flanks averaged, mean of 2 arrays, mostly near background
Baseline: not given
Direction: higher = stronger binding
Quantity: E-score
Residues (chain): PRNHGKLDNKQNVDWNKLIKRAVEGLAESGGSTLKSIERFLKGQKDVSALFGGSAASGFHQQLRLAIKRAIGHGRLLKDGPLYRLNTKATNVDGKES
Strand = AGGAGAAT; value = -0.126
Strand = AAATGTGC; value = 0.0339
Strand = CGTAAAGC; value = -0.174
Strand = CCATGTAC; value = -0.18
Strand = GTGAAGTA; value = -0.144
Strand = CATAAGCG; value = -0.0216
Strand = GCATCGAC; value = -0.029
Strand = CCAAGACG; value = -0.116
Strand = CGAGCAAA; value = 0.047
Strand = ATTCTACA; value = 0.0262
Strand = CCCACAGC; value = 0.0858
Strand = CAGAAAAC; value = 0.153
Strand = GCGGCACC; value = 0.117
Strand = ATAGGCTG; value = -0.0565
Strand = GAGTTGTA; value = -0.0054
Strand = AATTTAAT; value = 0.177
Strand = AGCCTCTC; value = -0.165
Strand = AGGAACCC; value = 0.0183
Strand = GTATCCAA; value = 0.0281
Strand = GATATAAC; value = 0.152
Strand = AGGGGAAT; value = 0.0143
Strand = AATGTAGA; value = -0.0758

Set 4
Target: RING finger protein unkempt homolog, zinc fingers 1-6, GST-SBP tag (UNK, Homo sapiens, UniProt Q9C0B0, residues 30-357)
Method: RNA Bind-n-Seq
Form: RNA
Sample: in vitro
Concentration: not given
Setting: RNA with constant flanks, human and mouse sites, ends assumed
Baseline: input RNA pool
Direction: higher = stronger binding
Quantity: bound/input enrichment
All sequences stand within: GGGAGUUCUACAGUCCGACGAUC … CAACAGAGGAUUGAGCAUCA
Construct (chain): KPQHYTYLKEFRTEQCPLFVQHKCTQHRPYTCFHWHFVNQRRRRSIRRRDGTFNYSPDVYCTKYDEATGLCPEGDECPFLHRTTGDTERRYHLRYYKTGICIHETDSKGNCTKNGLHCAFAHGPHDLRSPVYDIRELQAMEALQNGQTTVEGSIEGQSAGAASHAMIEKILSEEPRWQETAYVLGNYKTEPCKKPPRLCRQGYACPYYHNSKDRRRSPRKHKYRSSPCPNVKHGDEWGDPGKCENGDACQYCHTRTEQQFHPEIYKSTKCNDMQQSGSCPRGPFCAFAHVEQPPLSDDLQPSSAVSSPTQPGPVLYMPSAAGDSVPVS
Strand = AAGACGCUGACGCGGCACCACCUGUACUGCGAGCCCCCCGUGGAGCAGCCCCUGCCACGGCACCAUGCCCUCCGAGAGGCACCUGACUCUUUGCCUGAGUUCACGGUGCAGAUGGGGAAC; value = 0.0911 ratio
Strand = AAGGAGAACAGUUCUUGCGGCAGAUUUGAUAUAACAAUUGGACCAAAGCAGAAUAUGGGGAAAACUAUUGAAGGAAUUACAGUGACAGUUCACAUGCCAAAAGUUGUGCUGAACAUGAAC; value = 0.308 ratio
Strand = CAACAAUACUCAGGGAGGAGACUCCCAUAAUGGAAACUUUGUCAUUCCCCAGAUACAAUGUAGCUGAGCUUGUGGUUCAUAUUCGCAAUAAAUUAUUAACAGGAGCAGAUGGCAAAAACC; value = 0.248 ratio
Strand = UCCUAAUACUCCACAUUCAAACUGAAGAGGAAAAUUGAAAUCUCUAAUGAAGCUGCUGUGUGUAUUUAUGAAUAUUAAUGAAUAAAAACUGCUUGGAUGGUUUACCUUAACUACUGCAUG; value = 0.748 ratio
Strand = GGAAAUAACAAUCAAAAUAAACCAGGGUUCUUACGAAAGAAUCAGUAUACAAACACCAAAUUAGAAGUCAAGAAAAUCCCUCAGGAAUUGAACAACAUUACCAAGCUCAAUGAACACUUC; value = 2.71 ratio
Strand = UUUAUCGCAGCAGUUGAUCUAGAUGAGAUGCCAUUCACUUUUACUGAGCUACAGAAAAGCAUAGAAACCAGUGUCUAUAAAUUCUUUGACUUAUUAAAAGAAAUCGAUACCAGUACCAAG; value = 0.387 ratio
Strand = GAAAAACUUUUUGCUGAAGACACAGAAGCAAAGAACCCAUUUUCUACUCAGGACACAGAUUUAGACUUGGAGAUGUUAGCUCCCUAUAUCCCAAUGGAUGAUGACUUCCAGUUACGUUCC; value = 0.383 ratio
Strand = ACCAUUGCCUUGCUUGGUUACCUGAAGCACUACAGAAACAUUCCUGGACCCCACAUGGUUUUAGUUCCCAAGUCUACUUUACAUAACUGGAUGAAUGAAUUUAAACGAUGGGUUCCAUCU; value = 0.0736 ratio

A few entries again (set 1):
Strand = UUGGGU; value = 1.29
Strand = UCUGUC; value = 0.908
Strand = GAUGUC; value = 0.939
Strand = AAACGA; value = 0.764
Strand = GUGGAA; value = 1.15
Strand = CGGCCG; value = 0.944
Strand = CACCCA; value = 1.04
